{"data": "Measured values collected from several papers", "note": "Each numbered part is a random draw from the data of one study; scales do not carry over between parts. Positions count from the first letter of the parent shown."}
{"data": "Study 1", "target": "RING finger protein unkempt homolog, zinc fingers 1-6, GST-SBP tag (UNK, Homo sapiens, UniProt Q9C0B0, residues 30-357)", "method": "RNA Bind-n-Seq", "molecule type": "RNA", "medium": "in vitro", "concentration": "not given", "setting": "RNA with constant flanks, human and mouse sites, ends assumed", "reference": "input RNA pool", "direction": "higher = stronger binding", "constant ends, left off below": "GGGAGUUCUACAGUCCGACGAUC … CAACAGAGGAUUGAGCAUCA", "sequence of UniProt Q9C0B0 (30-357, looked up)": "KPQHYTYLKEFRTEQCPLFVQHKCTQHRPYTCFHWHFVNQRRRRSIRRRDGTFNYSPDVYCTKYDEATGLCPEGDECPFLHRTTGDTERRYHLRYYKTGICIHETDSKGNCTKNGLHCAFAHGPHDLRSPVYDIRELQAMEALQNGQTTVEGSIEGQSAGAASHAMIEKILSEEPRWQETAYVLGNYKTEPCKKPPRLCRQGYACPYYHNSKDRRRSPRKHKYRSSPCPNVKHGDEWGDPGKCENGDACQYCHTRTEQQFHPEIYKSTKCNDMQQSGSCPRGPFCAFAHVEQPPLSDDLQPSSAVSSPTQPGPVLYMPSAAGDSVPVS"}
{"Sequence": "GCUAAGAUUGGGCUUAUUCAGUUUUGCUUAUCUGCUCCUAAAACAGAUAUGGAUAAUCAAAUAGUAGUAUCUGACUAUGCCCAGAUGGAUCGAGUGCUUCGAGAGGAGAGAGCCUAUAUU", "bound/input enrichment": "0.224 ratio"}
{"Sequence": "GCUUCCCUUUUUCUCCUCACAAGGAGGUGAGGCUGGGACCUCCGGGCCAGCUUCUCACCUCAUAGGGUGUACCUUUCCCGGCUCCAGCAGCCAAUGUGCUUCGGAGCCACUCUCUGCAGA", "bound/input enrichment": "0.326 ratio"}
{"Sequence": "UACUUAUGCCAAUAUUGUGAAUAUUCAACAGGACAAAUUGACGAUCUUAAAAUUCAUCUAGAUUUCAAGCAUUCAGCUGACUUGCCUCAUAAAUGUAGUGAGUGCUUGAUGAGGUUUGGG", "bound/input enrichment": "0.288 ratio"}
{"Sequence": "GCUAUCUAUGUCCAAGCAUUGAUAUUUCGCCUAGAAGGAAAUAUCCAAGAAUCCCUAGAACUCUUCCAGACAUGUGCAGUUCUUAGUCCUCAGAGUGCUGAUAACCUCAAGCAGGUGGCC", "bound/input enrichment": "0.464 ratio"}
{"Sequence": "GGAGGCUCUUCUCUGCUCAUUGAGGCGUUAUCAAACAGUGGUCCCAAGUGCCAUCUGGACAUUAAAUAUAUCCUGAACAAGAAUGGGGGAAUGAUGGCUGAAGGAGCACGCCACUUUUUU", "bound/input enrichment": "0.174 ratio"}
{"Sequence": "CUUACACAUAAACUGGUAUUUUCGAACAAUAGGAAACUAUUUUUUCUCCUUUUUUUACAGUUUUAGUACGUAUCUGGCUUGUAUGUGGAAGACUAAAAAGUUGAUUUGCUAAAUGUGGUC", "bound/input enrichment": "0.358 ratio"}
{"Sequence": "UGGUGUACAAAUACGACAUUUUUGCAAGAAGGAAUGCCUACUUCUGCACGAUGUGAUGAUUUAGAAGCUUUGAAAAAGAAGGGUUGCCAGCCAAGUGACAUAGAGAAUCCCAGAGGCUCU", "bound/input enrichment": "0.218 ratio"}
{"Sequence": "UCUAUUGCUACAAGAGAGGGAGUUACCGUUUUGUAUUCUAAACUGAUCAGCAAUAAGGAAGUAGUACCUUUGCCUCAACAGGUUUUAUGCCUCAAAGGACCACAGUUGCCUGAUUUUGAA", "bound/input enrichment": "0.11 ratio"}
{"Sequence": "CUUCCAAAAGCCUGCUUAUACCCAGCUGUCUCUGCAGUAUAUGGCAACACAGAAGUGACUUUGGUUUAUCUUGGAAAACCUCUGGAUGGAUGACAGUGACUUUCUGGAAAGAAGAAGAGU", "bound/input enrichment": "0.248 ratio"}
{"Sequence": "UACCUGUGUCCCGGCAGCCUGAUUGCUGGCAGUGCCGUUCUACUGUAUGCUUUCGUGGAGACUCGGGACAACUACUUCUACAUUCACAGCAUUUGGCACAUGCUCAUUGCUGGCAGUGUG", "bound/input enrichment": "0.129 ratio"}
{"Sequence": "UAUUUAAGUUAUUAGACUUGCUAAUACAAGCAUACAUGUGCAACAGCUACUGGAUACUGAUAGCUAUCAAACCUCAAAUUUAAAGAUUUUCCUUCAUGGAAAAGUUACUAUACUUUGCAA", "bound/input enrichment": "0.412 ratio"}
{"data": "Study 2", "target": "RNA binding protein fox-1 homolog 2, RRM domain, GST-SBP tag (RBFOX2, Homo sapiens, UniProt O43251-10, residues 100-194)", "method": "RNA Bind-n-Seq", "molecule type": "RNA", "medium": "in vitro", "concentration": "365 nM", "setting": "natural RNA segment, single round, ends assumed", "reference": "no-protein control", "direction": "higher = stronger binding", "constant ends, left off below": "GGGAGUUCUACAGUCCGACGAUC … UGGAAUUCUCGGGUGCCAA", "Construct (chain)": "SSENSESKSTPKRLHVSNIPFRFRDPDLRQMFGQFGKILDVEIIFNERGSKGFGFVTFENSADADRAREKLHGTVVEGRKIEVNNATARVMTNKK"}
{"Sequence": "GUCCUUUUGGAUCUGGUCCUGCUCCUACCUGCUCCUUCUCUGCAGAUUGUUAGAAAGUGAACUUUGCUCAACCCAGACCCCGGCAGCCCAGGCUGGACCAAGGGUGGGCC", "RBNS enrichment (R)": 0.739}
{"Sequence": "CUAGGAAGGAGAGGCCCUUGCCUGCUAUAACCAUGCCUAGAGUGCCUGUCCUCCAGUAUUGCACCUGUAGCCGGAGCUAGGGCCACCCCAGUGCAGGGGCAAAGCAAACC", "RBNS enrichment (R)": 0.889}
{"Sequence": "UGGUAAAGAAGAUAAAUAGGUGAAUUUUAUUGCCUGUGUUUUCAGGCUUCAGAGGUACCUGGCACCUUACUCAAGCAAAAACAAAAAACAGCUUUACUUCAAAAGCAUGU", "RBNS enrichment (R)": 0.672}
{"Sequence": "CGCUGGUUUUGUUGUCUACGGGGAGCCCCAGGAUUCAGCUGUGGGUCUCUUUGAGUAUCUGGAAAUCCCUGUCAUCUGCUGUCAUUGUGAGCAAGAAUUGCCCAGCAUUU", "RBNS enrichment (R)": 1.29}
{"Sequence": "AGAAUACAAAGUCCCGGGCUGUUAGAGGAGUCCUUUCCUCUCUGCCUGCCCUUUCCUGUCCCUCCCUCGAAUUCUCUCUCCCCGUAAGUGAUGCUGGAAAAGUCAUAGGA", "RBNS enrichment (R)": 0.672}
{"Sequence": "AAAAGGCUCAGACCGACCGAUGGCAAGAUCUGCAAGCGUCUCAAAGCCCAGGCAGAAAAGGACUUUUCUUUUAUUGGAAGAAGUAAACAUGGCUAGAAAGAACCACGUUC", "RBNS enrichment (R)": 0.425}
{"Sequence": "ACAGUAACCACAUGCGGCUGUUUAAAGUUAAGCCAAUUAAAAUCACAUAAGAUUAAAAAUUCCUUCCUCAGUUGCACUAACCACGUUUCUAGAGGCGUCACUGUAUGUAG", "RBNS enrichment (R)": 0.558}
{"Sequence": "AGUCGUUUCUAUGUAGCUUGGCAGAGCCCACUGAUGGCUGCAGGUGUGUAGCCUACUGACAGCUUUGGUUAACCCACUGCACAUCACCCAGUCAUUUACCCAACUUACUC", "RBNS enrichment (R)": 0.334}
{"Sequence": "CCAGGAUAAUGAGCGUUGCUGACACCCUUGCUAGCUUGUCCUGCCUACCUGCUUACCCCACUCCCUCACCUUCCUCCUUCCCUUCUGCCCUCCAUCCACCUGCCUUAACU", "RBNS enrichment (R)": 1.24}
{"Sequence": "CAUUUUUUCUUUGGUCAGAAGCCAGGAACUGGUGUCAUUCCUUAAAAGAUACGUGCCGGGGCCAGGUGUGGUGGCUCACGCCUGUAAUCCCAGCACUUUGGGAGGCCGAG", "RBNS enrichment (R)": 0.285}
{"Sequence": "CCAGUAUAAAGACAAAUAAUAUCUAUCGCUCCCAUUAUUUUCAUAAGUAACACAGAUUCCCUGAUUUUUUUUUUUAAAAAACUAAAAAGAUCUCUAAACCUUCUUACAUA", "RBNS enrichment (R)": 0.662}
{"Sequence": "UCUAAACAGCCUUUGAGGGUUUUACCCCCUGUGUCUCUUCCCUCCCCAUUGCCUAUUUGCACCCUAUGCAUGUGGUCAUAUGUAAGCUGGAUCAUCUCCACAGCUGUGAC", "RBNS enrichment (R)": 5.95}
{"data": "Study 3", "target": "ABI1, truncated, D143A, DHFR fusion (Arabidopsis thaliana)", "method": "DHFR PCA, deep sequencing", "medium": "yeast", "setting": "methotrexate growth selection, single substitutions", "added": "(+)-ABA 0.39 µM", "reference": "wild-type fitted maximum", "direction": "higher = stronger binding", "starting sequence": "PYL1, truncated, DHFR fusion (Arabidopsis thaliana); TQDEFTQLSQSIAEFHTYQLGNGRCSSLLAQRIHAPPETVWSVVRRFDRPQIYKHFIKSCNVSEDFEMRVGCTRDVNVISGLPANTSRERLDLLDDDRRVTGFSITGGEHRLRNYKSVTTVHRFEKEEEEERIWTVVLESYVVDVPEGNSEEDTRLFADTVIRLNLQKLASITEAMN; partner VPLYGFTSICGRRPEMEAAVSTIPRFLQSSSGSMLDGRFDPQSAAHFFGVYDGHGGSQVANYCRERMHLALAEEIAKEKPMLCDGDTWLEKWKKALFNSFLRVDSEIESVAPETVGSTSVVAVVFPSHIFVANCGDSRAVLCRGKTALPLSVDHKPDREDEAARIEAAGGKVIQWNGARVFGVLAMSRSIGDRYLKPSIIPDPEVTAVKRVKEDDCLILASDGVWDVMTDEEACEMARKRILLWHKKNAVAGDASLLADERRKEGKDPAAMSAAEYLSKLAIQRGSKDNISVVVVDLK"}
{"Substitution": "V118Y", "relative binding score [%]": -3.4}
{"Substitution": "E125K", "relative binding score [%]": 45.9}
{"Substitution": "L29W", "relative binding score [%]": -4.05}
{"Substitution": "K126P", "relative binding score [%]": 71.6}
{"Substitution": "D65P", "relative binding score [%]": 57.7}
{"Substitution": "S27M", "relative binding score [%]": -0.841}
{"Substitution": "V121M", "relative binding score [%]": -9.04}
{"Substitution": "L166D", "relative binding score [%]": 1.23}
{"Substitution": "D65W", "relative binding score [%]": -7.04}
{"Substitution": "D75M", "relative binding score [%]": 47.1}
{"Substitution": "F47N", "relative binding score [%]": -15}
{"Substitution": "F5W", "relative binding score [%]": 49.7}
{"data": "Study 4", "target": "Ras GTPase-activating protein-binding protein 1, full length (G3BP1, Homo sapiens, UniProt Q13283)", "method": "RNA Bind-n-Seq", "molecule type": "RNA", "medium": "in vitro", "concentration": "200 nM", "setting": "whole 134-nt RNA, ends assumed", "added": "150 mM LiCl", "reference": "input library", "direction": "higher = stronger binding", "library": "7-deaza-guanosine replaces G", "constant ends, left off below": "GGGAGUUCUACAGUCCGACGAUC … UGGAAUUCUCGGGUGUCAAGG", "sequence of UniProt Q13283 (whole entry, looked up)": "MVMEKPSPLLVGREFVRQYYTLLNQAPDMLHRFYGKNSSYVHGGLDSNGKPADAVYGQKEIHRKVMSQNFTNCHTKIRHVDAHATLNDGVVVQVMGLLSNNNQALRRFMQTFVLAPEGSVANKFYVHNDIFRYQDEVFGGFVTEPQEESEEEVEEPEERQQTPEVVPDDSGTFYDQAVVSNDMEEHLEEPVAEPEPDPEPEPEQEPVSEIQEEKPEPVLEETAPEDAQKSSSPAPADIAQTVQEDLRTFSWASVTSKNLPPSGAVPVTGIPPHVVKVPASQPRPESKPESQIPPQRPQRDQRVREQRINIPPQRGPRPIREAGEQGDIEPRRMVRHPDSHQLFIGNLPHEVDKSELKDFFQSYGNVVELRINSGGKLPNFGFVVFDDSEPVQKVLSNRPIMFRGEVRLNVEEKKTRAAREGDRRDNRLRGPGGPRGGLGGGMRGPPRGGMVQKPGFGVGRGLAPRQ"}
{"Sequence": "CACAGACAACACGCACCCACACAGACACAGAGGGAAGGGGUUGGGAUGGGGACAGGGUGCACAGGAGGGCGGGGUAGGACCCCAGCCCCU", "log2 enrichment": -0.948}
{"Sequence": "UAAUUUAGAUCUUAAAGAAAAAGUGGAGCCUGAGGUUCUCAGCACUGAUACCCAAACUUCCCCAGAGCCAGGCACAAGGAUGAACAUUCU", "log2 enrichment": 1.02}
{"Sequence": "UCCUGUGCUACACAUCGUAUGUACCGAAUCGGGCCCCCCGGCCCCCCGGGCCCCCCGGGGAAAGUAUUAUGUUACGCCGUUCGGAUCUGC", "log2 enrichment": 0.0328}
{"Sequence": "UGGCCCUGGUGGCAUGCGGGGAGGAAGAGGUGGCCUCAUGGAUCGUGGUGGUCCCGGUGGAAUGUUCAGAGGAGGCCGUGGUGGAGACAG", "log2 enrichment": 0.135}
{"Sequence": "GCAGGAAGUAAAAACAAAUGGAAAUGCUUCGGUUAGUGGCAGGGGUGGGGGUUGCUAAGGAAAGGGUGGGAUGGGAGUGGGUAAAGAGUU", "log2 enrichment": -0.0276}
{"Sequence": "CAAGUCCUGUGCUACACAUCGUAUGUACCGAAUCGGAGGUUUUUUUGGAAAAAGGAAAGUAUUAUGUUACGCCGUUCGGAUCUGCACUUC", "log2 enrichment": -0.496}
{"Sequence": "UGGGAGGUGGAUUUUGUUUAUUUUUUUAGCUCAUUUCCAGGGGUGGGAAUUUAUUUUUAAUAUGUGUCAUGAAUAAAGUUGUUUUUGAAA", "log2 enrichment": -0.431}
{"Sequence": "AGUCCUGUGCUACACAUCGUAUGUACCGAAUCGGAAAAAGGGGAAAAAGGGAAAAAGGAAAGUAUUAUGUUACGCCGUUCGGAUCUGCAC", "log2 enrichment": -0.487}
{"Sequence": "CAAGUCCUGUGCUACACAUCGUAUGUACCGAAUCGGAAAAGGAAAAGGGGAAAAGGAAAGUAUUAUGUUACGCCGUUCGGAUCUGCACUU", "log2 enrichment": -0.85}
{"Sequence": "CCUGUGCUACACAUCGUAUGUACCGAAUCGGGCCCCCCGGCCCCCCGGGGCCCCCCGGGGAAAGUAUUAUGUUACGCCGUUCGGAUCUGC", "log2 enrichment": 0.0491}
{"Sequence": "CUGUGCUACACAUCGUAUGUACCGAAUCGGGCCCCCCCGGGCCCCCCCGGGCCCCCCCGGGGAAAGUAUUAUGUUACGCCGUUCGGAUCU", "log2 enrichment": -0.265}
